Measurements collected from several papers.
± marks the error that the study gave.

| SMILES | tested on | test | test system | conditions | measurement | value |
| --- | --- | --- | --- | --- | --- | --- |
| CC(=O)OC[C@H]1O[C@@H](Oc2ccc(C#[C][Pt+])cc2)[C@H](OC(C)=O)[C@@H](OC(C)=O)[C@@H]1OC(C)=O.O=S(=O)([O-])C(F)(F)F.c1ccc(-c2cccc(-c3ccccn3)n2)nc1 | PLC | cell growth or viability |  | 24 h | IC50 | > 100 µM |
| COc1cc(-n2cc3cc(F)cc(C(N)=O)c3n2)cc(Cl)c1C1CC(O)(CCO)Cc2ccccc21 (centres unmarked) | Caco-2 | cell growth or viability, MTT |  | 72 h | IC50 | 0.15 µM |
| CC[C@H](C)[C@H](NC(=O)[C@H](CC(=O)O)NC(=O)[C@H](Cc1ccccc1)NC(=O)[C@H]1CCC[C@@H]1NC(=O)CN)C(=O)N[C@H](CC(=O)N[C@@H](CCCCN)C(=O)N[C@@H](CCCCN)C(=O)N[C@H]1CCC[C@@H]1C(=O)N[C@@H](C)C(=O)N[C@@H](CCC(=O)O)C(=O)N[C@@H](CO)C(=O)N[C@H](CC(N)=O)Cc1ccccc1)[C@@H](C)CC | NIH 3T3 | cytotoxicity |  |  | IC50 | 106 µg/mL |
| O=C(NCc1cc(F)cc(F)c1)[C@@]1(O)CCN(c2ccc3[nH]ccc3c2)C1=O | PC-9 | cell growth or viability |  |  | IC50 | 17 µM |
| CC[C@H](C)[C@H](NC(=O)[C@H](CCCCN)NC(=O)[C@H](CCCCN)NC(=O)[C@@H](NC(=O)[C@@H](NC(=O)[C@H](CC(=O)O)NC(=O)[C@H](Cc1ccccc1)NC(=O)[C@H](CC(C)C)NC(=O)CN)[C@@H](C)CC)[C@@H](C)CC)C(=O)N[C@@H](C)C(=O)N[C@@H](CCC(=O)O)C(=O)N[C@@H](CO)C(=O)N[C@@H](Cc1ccccc1)C(N)=O | NIH 3T3 | cytotoxicity |  |  | IC50 | 56.1 µg/mL |
| CC(C)(C)c1nc(-c2cccc(NS(=O)(=O)c3c(F)cccc3F)c2F)c(-c2ccnc(N)n2)s1.Cc1[nH]c2ccccc2c1CCNCc1ccc(/C=C/C(=O)NO)cc1 | C13 | cell growth or viability, crystal violet |  |  | IC50 | 0.0076 µM |
| Cc1cc(C)cc(COc2cc3c(cc2OCc2cc(C)cc(C)c2)[C@H]2C[C@@](O)(Cc4cn(Cc5ccc(F)cc5)nn4)C[C@@H](C)N2CC3)c1 | ASPC1 | cell growth or viability, MTT |  |  | IC50 | 0.486 µM |
| CNS(=O)(=O)Nc1nccc(Cc2c(C)c3ccc(Oc4ncccc4F)cc3oc2=O)c1F | MDA-MB-361 | cell viability |  | 7 days | IC50 | > 1 µM |
| CC#CC#C/C=C1/O[C@]2(CC[C@H](OC(C)=O)CO2)[C@@H](O)[C@@H]1OC(=O)CC(C)C (stereo in doubt) | RAW264.7 | NO release, inhibitor, Griess |  | LPS-stimulated | IC50 | 26 µM |
| CN1CC[C@@H](COc2cnc(C#N)cc2-c2ccn3nc(NC(=O)C4CC4)cc3c2)C1 | C57BL/6 mouse BMDC | TNF release |  | 3 h, added: LPS | IC50 | 0.26 µM |
| COC(=O)N1c2ccc3c(nc(Cc4ccccc4)n3[C@@H]3CCC[C@@H](C(=O)O)C3)c2CC[C@@H]1C | HCC1500 | cell growth or viability, ATP luminescence |  | 10 days | IC50 | 0.08 µM |
| O=C(NCCOCCOCCOCCNC(=O)c1cc2ccccc2c2ccccc12)c1cc(C(=O)N2CCNCCNCCNCC2)c(O)c(C(=O)N2CCNCCNCCNCC2)c1 | WI-38 | cell growth or viability, MTT |  | 24 h | IC50 | > 1000 µM |
| CN1CCC(N[C@@H]2CCc3[nH]c4c(C(N)=O)ccc(-c5ccccc5Cl)c4c3C2)CC1 | A-375 | cell growth or viability |  |  | IC50 | 0.0231 µM |
| C[n+]1cc(/C=N/NC(=O)c2ccc3ccc(C(=O)N/N=C/c4cc5ccccc5[n+](C)c4)nc3n2)cc2ccccc21 | MYC parallel G4 DNA | FRET melting |  | 1 µM, DNA 0.2 µM | ΔTm | 8.1 ± 0.3 °C |
| O=S(=O)(c1ccc2c(c1)OCO2)n1cc(CCCCN2CCC(=C(c3ccc(F)c(F)c3)c3ccc(F)c(F)c3)CC2)nn1 | THP-1 | cell growth or viability, ATP luminescence |  | 48 h | IC50 | 5.02 µM |
| COc1cc(-c2cn(C)c(=O)c3cnccc23)c(OC)cc1CN(C)C | MOLM-13 | cell growth or viability, ATP luminescence |  |  | IC50 | 69.9 µM |
| C=CC(=O)N1CCC([C@@H]2CCNc3c(C(N)=O)c(-c4ccc(Oc5ccccc5)cc4)nn32)CC1 | Ramos | IP1 production, HTRF |  | 4 h, added: anti-IgM | IC50 | 0.00415 µM |
| C=CC(=O)N1CCCC(n2c(=O)c3ncccc3n(Cc3ccc(Oc4ccccc4)cc3)c2=O)C1 (centres unmarked) | OCI-Ly18 | cell growth or viability, MTT |  | 72 h | IC50 | 0.1 µM |
| C=CC(=O)N1CC2C(=O)N(CCN(C)C)c3c(c4cc(Cl)c(-c5c(O)cccc5F)nc4n(-c4c(C)ccnc4C(C)C)c3=O)N2CC1C (centres unmarked) | NCI-H1373 (KRAS G12C) | cell proliferation, inhibitor |  |  | IC50 | 0.0306 ± 0.0138 µM |

| SMILES | tested on | test | test system | conditions | measurement | value |
| --- | --- | --- | --- | --- | --- | --- |
| CC(=O)N[C@@H](CCCNC(=N)N)C(=O)N[C@@H](Cc1c[nH]c2ccccc12)C(=O)N[C@@H](CCCNC(=N)N)C(=O)N[C@@H](Cc1c[nH]c2ccccc12)C(=O)N[C@@H](CCCNC(=N)N)C(=O)N[C@@H](Cc1c[nH]c2ccccc12)C(N)=O | MCF-10A | cell viability |  | 48 h, light irradiation 2.5 min | IC50 | > 100 µM |
| Cn1ncc(-c2ccc3c(=O)[nH]nc(CN)c3c2)c1-c1c(F)c(Cl)cc(OC2CC2)c1C#N | NCI-H322 | cell viability, CellTiter-Glo |  | 120 h | IC50 | 0.4 µM |
| CC(C)CC(OC1OC(CO)C(O)C(OC(=O)C=Cc2ccccc2)C1O)(C(=O)OCc1ccc(OC2OC(CO)C(O)C(O)C2O)cc1)C(O)C(=O)OCc1ccc(OC2OC(CO)C(O)C(O)C2O)cc1 (centres unmarked) | MDA-MB-231 breast cancer | cell viability, MTT | DMEM with 10% FBS | 48 h | IC50 | > 200 µM |
| CC[C@H](C)[C@H](NC(=O)[C@H](CCCCN)NC(=O)C[C@H](Cc1ccccc1)NC(=O)[C@H](CC(C)C)NC(=O)CN)C(=O)N[C@H](CC(=O)N[C@@H](CCCCN)C(=O)N[C@@H](CCCCN)C(=O)N[C@H](CC(=O)N[C@@H](C)C(=O)N[C@@H](CCCCN)C(=O)N[C@@H](CO)CC(=O)N[C@@H](Cc1ccccc1)C(N)=O)[C@@H](C)CC)[C@@H](C)CC | NIH 3T3 | cytotoxicity |  |  | IC50 | 42.2 µg/mL |
| COc1ccc(C([O-])=CC(=O)c2ccc(C(C)(C)C)cc2)cc1.[Cl-].[Ru+2].c1ccc(-c2cccc(-c3ccccn3)n2)nc1 | HL-60 | phototoxicity |  | light over 450 nm, 29.1 J/cm2 | IC50 | 0.45 µM |
| CCOc1cncc(-c2ccc(NC(=O)C3(c4ccnc(NS(=O)(=O)C5CC5)n4)CCOCC3)nc2)n1 | SNU-449 | cell proliferation, CellTiter-Glo |  | 72 h | IC50 | 10 µM |
| CC#CC#C/C=C1/O[C@@]2(CC[C@@H](O)CO2)[C@H](O)[C@H]1OC(=O)CC(C)C | RAW264.7 | NO release, inhibitor, Griess |  | LPS-stimulated | IC50 | > 50 µM |
| CCCON(Cc1ccc(C(=O)NO)cc1)C(=O)Nc1cc(C)cc(C)c1 | MOLM-13 | cell viability |  | 72 h | IC50 | 0.108 ± 0.014 µM |
| CC[C@H](C)[C@H](NC(=O)[C@H](CCCCN)NC(=O)[C@H](Cc1ccccc1)NC(=O)[C@H]1CCC[C@@H]1NC(=O)[C@@H](N)CCCCN)C(=O)N[C@H](CC(=O)N[C@@H](CCCCN)C(=O)N[C@@H](CCCCN)C(=O)N[C@H]1CCC[C@@H]1C(=O)N[C@@H](C)C(=O)N[C@@H](CCCCN)C(=O)N[C@@H](CO)C(=O)N[C@H](CC(N)=O)Cc1ccccc1)[C@@H](C)CC | NIH 3T3 | cytotoxicity |  |  | IC50 | 63.2 µg/mL |
| CC(C)c1ccc(N(C)c2ccc3c(c2)OCC[C@H]3CNc2cnccc2C(=O)O)cc1 | Huh-7 | cell growth or viability, ATP luminescence |  | 7 days | IC50 | 0.014 µM |
| CC(C)C(=O)Cc1c(OCC(O)C(C)(C)O)ccc2ccc(=O)oc12 (centres unmarked) | COLO 205 | cell growth or viability, MTT |  | 72 h | IC50 | > 100 µM |
| CC[C@H](C)[C@H](NC(=O)[C@H](CCCCN)NC(=O)C[C@H](Cc1ccccc1)NC(=O)[C@H](CC(C)C)NC(=O)CN)C(=O)N[C@H](CC(=O)N[C@@H](CCCCN)C(=O)N[C@@H](CCCCN)C(=O)N[C@H](CC(=O)N[C@@H](CC(C)C)C(=O)N[C@@H](CCCCN)C(=O)N[C@H](CC(=O)N[C@@H](Cc1ccccc1)C(N)=O)CC(C)C)[C@@H](C)CC)[C@@H](C)CC | NIH 3T3 | cytotoxicity |  |  | IC50 | 9.6 µg/mL |
| COc1cc(-c2cc(C(C)=O)n3ccccc23)c(OC)cc1Cn1ccnc1 | MOLM-13 | cell growth or viability, ATP luminescence |  |  | IC50 | 0.1 µM |
| CC1C(CO)CCC2(CO)CCC3(C)C(=CCC4C(C)(CCC(=O)O)C(C(C)(O)CO)CCC43C)C12 (centres unmarked) | RAW264.7 | NO release, inhibitor, Griess |  | LPS-stimulated | IC50 | > 100 µM |
| CCNC(=S)NN=Cc1c2ccccc2cc2ccccc12.Cc1ccc(C(C)C)cc1.[Cl-].[Cl-].[Ru+2] | Caco-2 | cytotoxicity, MTS |  | 48 h | IC50 | 235 ± 6 µM |
| C[C@@]1(CO)CC[C@]2(CO)CC[C@]3(C)C(=CCC4[C@@](C)(CCC(=O)O)C([C@@](C)(O)CO)CC[C@]43C)[C@@H]2C1 (some centres unmarked) | RAW264.7 | NO release, inhibitor, Griess |  | LPS-stimulated | IC50 | > 100 µM |
| NCCCn1cc(COc2cc(C(=O)Nc3cc(OCCN)c4ccccc4n3)nc(C(=O)Nc3cc(OCCN)c4ccccc4n3)c2)nn1 | WI-38 | cell growth or viability, ATP luminescence |  | 72 h | IC50 | > 40 µM |
| NC(=O)c1ccc(-c2ccccc2Cl)c2c3c([nH]c12)CC[C@H](N)C3 | B16F10 | cell proliferation |  | 96 h | IC50 | 0.026 µM |
| O=C(N/N=C/c1cc[n+](Cc2ccccc2)c2ccccc12)c1cncc(C(=O)N/N=C/c2cc[n+](Cc3ccccc3)c3ccccc23)n1 | hp2 hairpin duplex DNA | FRET melting |  | 1 µM | ΔTm | 1.4 ± 0.3 °C |

For quick reference, copied from above:
| SMILES | tested on | test | test system | conditions | measurement | value |
| --- | --- | --- | --- | --- | --- | --- |
| O=C(NCCOCCOCCOCCNC(=O)c1cc2ccccc2c2ccccc12)c1cc(C(=O)N2CCNCCNCCNCC2)c(O)c(C(=O)N2CCNCCNCCNCC2)c1 | WI-38 | cell growth or viability, MTT |  | 24 h | IC50 | > 1000 µM |
| CN1CCC(N[C@@H]2CCc3[nH]c4c(C(N)=O)ccc(-c5ccccc5Cl)c4c3C2)CC1 | A-375 | cell growth or viability |  |  | IC50 | 0.0231 µM |
| C[n+]1cc(/C=N/NC(=O)c2ccc3ccc(C(=O)N/N=C/c4cc5ccccc5[n+](C)c4)nc3n2)cc2ccccc21 | MYC parallel G4 DNA | FRET melting |  | 1 µM, DNA 0.2 µM | ΔTm | 8.1 ± 0.3 °C |
| O=S(=O)(c1ccc2c(c1)OCO2)n1cc(CCCCN2CCC(=C(c3ccc(F)c(F)c3)c3ccc(F)c(F)c3)CC2)nn1 | THP-1 | cell growth or viability, ATP luminescence |  | 48 h | IC50 | 5.02 µM |
| COc1cc(-c2cn(C)c(=O)c3cnccc23)c(OC)cc1CN(C)C | MOLM-13 | cell growth or viability, ATP luminescence |  |  | IC50 | 69.9 µM |
| C=CC(=O)N1CCC([C@@H]2CCNc3c(C(N)=O)c(-c4ccc(Oc5ccccc5)cc4)nn32)CC1 | Ramos | IP1 production, HTRF |  | 4 h, added: anti-IgM | IC50 | 0.00415 µM |
